Experimental data pooled from the literature.
± marks the error that the study gave.

`CCCCn1cc(C(=O)O)c(=O)c2cc(F)c3[nH]nnc3c21` has an IC50 of 268 µM (HT-29; cell growth or viability, SRB).
`COc1cc(O)c(-c2cc(-c3c(C)cc(O)c4c(OC)ccc(-c5c(O)cc(OC)c6c5C[C@@H](C)N(C)[C@@H]6C)c34)c(O)c3c(OC)cc(C)cc23)c2c1[C@@H](C)N(C)[C@H](C)C2` has an IC50 of 6.64 µM (L6; cytotoxicity).
The IC50 of `CC(=O)[O-].Nc1ccc(C([O-])=NN=Cc2ccc(OCC(=O)Nc3ccc(Cl)cc3)cc2)cc1.[Cu+2]` is reported as 31.4 ± 2.6 µM (HeLa; cytotoxicity, MTT; 24 h).
`CC(C)(C)c1ccc(NC(=S)N/N=C/c2ccccc2O)cc1` has an IC50 of 3.76 µg/mL (HUVEC; cell growth or viability, CCK-8; 24 h).
For `O=C(Nc1ccc2c(c1)CN(c1ccccc1)C2=O)N1CCN(c2ccc(F)cc2)CC1`, the IC50 was greater than 64 µM (primary peritoneal mouse macrophages; cytotoxicity; 5% fetal calf serum).
`CSc1ncc(-c2cc(-c3ccc(Br)cc3)[nH]c(=N)c2C#N)n1Cc1ccccc1` gave an IC50 of greater than 130 µM (HT-29; cell growth or viability, MTT; 24 h).
With `O=C(Nc1ccc2c(c1)CN(c1ccccc1)C2=O)N1CC[C@H](F)C1` the IC50 was greater than 64 µM (primary peritoneal mouse macrophages; cytotoxicity; 5% fetal calf serum).
`Cc1cc(=O)c2c(O)c3c(O[C@@H]4O[C@H](CO)[C@@H](O)[C@H](O)[C@H]4O)cc(O)cc3cc2o1` has an IC50 of greater than 500 µM (HK-2 in HepaRG co-culture; cell viability, MTT; 24 h).
`CCCCn1cc(C(=O)O)c(=O)c2cc(F)c(N)c([N+](=O)[O-])c21` has an IC50 of 190 ± 8.7 µg/mL (HT-29; cell growth, SRB; 72 h).
`O=C(Nc1ccc2c(c1)CN(c1ccc(F)c(F)c1)C2=O)N1CCN(c2ccc(F)cc2)CC1` gave an IC50 of 32 µM (primary peritoneal mouse macrophages; cytotoxicity; 5% fetal calf serum).
`C=C(C)C(O)COc1c2occc2cc2ccc(=O)oc12` (stereo not shown) has an IC50 of 54.8 µM (NIH3T3; cell growth or viability, MTT; 24 h).
`CNC(=O)c1c(C)oc2cc(Oc3ncnc4cc(OC)c(OCCCCCCC(=O)NO)cc34)ccc12` gave an IC50 of 3.43 µM (HUVEC; cytotoxicity, CellTiter-Glo; 72 h, 10% FBS).
For `CCSc1ncc(-c2cc(-c3ccc(Br)cc3)[nH]c(=O)c2C#N)n1Cc1ccccc1`, the IC50 was 97 µM (HT-29; cell growth or viability, MTT; 24 h).
For `O=C(Nc1ccc2c(c1)CN(c1ccc(Cl)cc1)C2=O)N1CC[C@H](F)C1`, the IC50 was greater than 64 µM (primary peritoneal mouse macrophages; cytotoxicity; 5% fetal calf serum).
With `CSc1ncc(-c2cc(-c3ccc4c(c3)OCO4)[nH]c(=N)c2C#N)n1Cc1ccccc1` the IC50 was greater than 130 µM (HT-29; cell growth or viability, MTT; 24 h).
`O=C(Nc1ccc2c(c1)CN(c1ccc(Cl)cc1)C2=O)N1CCN(c2ccc(F)cc2)CC1` has an IC50 of greater than 64 µM (primary peritoneal mouse macrophages; cytotoxicity; 5% fetal calf serum).

Some of these lines once more:
The IC50 of `CC(=O)[O-].Nc1ccc(C([O-])=NN=Cc2ccc(OCC(=O)Nc3ccc(Cl)cc3)cc2)cc1.[Cu+2]` is reported as 31.4 ± 2.6 µM (HeLa; cytotoxicity, MTT; 24 h).
